Results pooled from the literature.
Compare with care: the assays were run in different laboratories. Values joined by “and” are separate records of one study, mostly repeats; a detail may differ. ± gives the spread as reported.
ALB: Albumin (ALB, Homo sapiens, UniProt P02768)
uncharacterized protein: uncharacterized protein (Spodoptera exigua, UniProt F1CEY0)
MAPK7: Mitogen-activated protein kinase 7 (MAPK7, Homo sapiens, UniProt Q13164)

N[C@H](CNC(=O)c1cc(Br)c(-c2ccccc2Br)s1)C(=O)O has a Hill slope of 1.18 (Glutamate receptor ionotropic, NMDA 1, with GluN2C (Grin1, Rattus norvegicus, UniProt P35439); with: glutamate 300 µM).
O=C(O)[C@@H]1CCCN1c1ncnc2[nH]cnc12 (racemic) — result for “log fold enrichment”: 0.0713 (DNA mismatch repair protein Msh6 (Homo sapiens, UniProt P52701); binding, affinity selection mass spectrometry; reference: other proteins in batch).
The −TΔS of CC(=O)N[C@H](C(=O)N1C[C@H](O)C[C@H]1C(=O)NCc1ccc(-c2scnc2C)cc1)C(C)(C)SCCCCCCNC(=O)C[C@@H]1N=C(c2ccc(Cl)cc2)c2c(sc(C)c2C)-n2c(C)nnc21 is reported as -6.57 ± 0.04 kcal/mol (BRD4/VHL, BD1; with elongins B/C (Homo sapiens, UniProt O60885+P40337); ternary complex binding, ITC; 25 °C, with: VHL-ElonginB-ElonginC titrated into compound:PROTAC:Brd4^BD1 complex).
For O=c1ccn([C@@H]2O[C@H](COP(=O)(O)OP(=O)(O)O)[C@@H](O)[C@H]2O)c(=O)[nH]1, the koff was 650 ± 10 s⁻¹ (ABO (Homo sapiens, UniProt P16442, G235S/G268A/L266M/R176G/W181E); methyl-TROSY NMR titration lineshape; mutant presaturated with H-disaccharide).
The fluorescence increase of COc1cc(O)c2c(c1)oc(=O)c1c3cc(O)c(O)cc3oc21 is reported as 26.8% (MAL12 (Saccharomyces cerevisiae S288c, UniProt P53341); ANS fluorescence; 0.5 µM, hydrophobic exposure).
With CCNC(=O)/C=C/c1cccc(Br)c1 the normalised signal was 0.426 and 0.451 and 0.411 and 0.446 (SLC6A19 (Homo sapiens, UniProt Q695T7); inhibitor, FLIPR membrane potential; CHO-BC cells; 100 µM; reference: uninhibited control).
O=C(Nc1cccc2c(=O)cc(-c3nnn[nH]3)oc12)c1ccc(OCCCCc2ccccc2)cc1 has an inhibition of 1.67% and 49.4% and 15.2% and 43.8% (Volume-regulated anion channel subunit LRRC8C, part LRRC8A IL1 chimera (LRRC8C, Homo sapiens, UniProt Q8TDW0); ion current, inhibitor, whole-cell patch clamp; HCT LRRC8-/- cells, transfected; 1 µM, low ionic strength swelling, -100 mV).
CCN1CCC[C@H]1CNC(=O)c1c(O)c(Cl)cc(Cl)c1OC — result for “log2 fold change”: 0.462 (Probable G-protein coupled receptor 148 (GPR148, Homo sapiens, UniProt Q8TDV2); β-arrestin recruitment, TANGO luminescence, refers to: GPR148; concentration not given; reference: basal luminescence).
For COc1cc(-c2cncc3c2CN(C)Cc2cc(N4CCNCC4)ccc2-3)cc(OC)c1OC, the remaining activity was 109% (SBK1 (Homo sapiens, UniProt Q52WX2); kinase activity; 1 µM, human enzyme, with: ATP 10 µM; reference: DMSO control).
O=c1cc(CO)occ1[O-].[Cl-].[W+4].c1cc[cH-]c1.c1cc[cH-]c1 — result for “Gibbs free energy change”: -5.82 kcal/mol (ALB; binding, fluorescence quenching; 303 K).
The reaction velocity of Nc1nc2c(ncn2[C@@H]2O[C@H](COP(=O)(O)O)[C@@H](O)[C@H]2O)c(=O)[nH]1 is reported as 0.0737 µM/s and 0.0678 µM/s and 0.0603 µM/s (GUK1 (Homo sapiens, UniProt Q16774); enzyme activity, NADH-coupled; 500 µM, with: KCl 150 mM).
COc1cccc(CNc2nc3ccc(C)cc3n3cnnc23)c1 has a displacement of 37 ± 1% (ADORA2A (Homo sapiens, UniProt P29274); binding, radioligand competition; 30 µM, with: [3H]ZM241385).
Under “binding entropy change”, COc1cc(-c2[o+]c3cc(O)cc(O)c3cc2O[C@@H]2O[C@H](CO)[C@@H](O)[C@H](O)[C@H]2O)cc(O)c1O is recorded as -0.02 kJ/(mol·K) (ALB; van't Hoff analysis; concentration not given).
The kcat of NCCCC[C@H](N)C(=O)Nc1ccc2ccccc2c1 is reported as 36 s⁻¹ (Puromycin-sensitive aminopeptidase (Rattus norvegicus, UniProt F1M9V7); substrate; MW 100 kDa).
CCCCCCCCCC=O has a relative fluorescence of 58.9% (uncharacterized protein; binding, competitor, fluorescence displacement; 20 µM, pH 7.4, with: 1-NPN 20 µM; reference: 1-NPN alone).
NC/C(=C\F)COc1cccc(Cn2c(=S)[nH]c(=O)c3[nH]cnc32)c1 has an inhibition of less than 50% (human nicotinic acetylcholine receptor; radioligand binding; 10 µM).
Under “binding enthalpy (ΔH)”, Nc1ncnc2c1ncn2[C@@H]1O[C@H](COP(=O)(O)OP(=O)(O)O)[C@@H](O)[C@H]1O is recorded as -4.8 kcal/mol (Cell cycle histidine kinase CckA, CA domain (Caulobacter vibrioides, UniProt Q9X688); isothermal titration calorimetry; Caulobacter crescentus; concentration not given, 25 °C, with: without c-di-GMP).
Nc1ncnc2c1ncn2[C@@H]1O[C@H](COP(=O)(O)OP(=O)(O)O)[C@@H](O)[C@H]1O has a Km of 29 ± 3 µM (CKMT1A (Homo sapiens, UniProt P12532, H99K); substrate, Kinase-Glo luminescence; pH 7.0, reverse reaction, H61K mutant, with: second substrate in excess).
The relaxed DNA of O=c1nc(SCc2cc(F)cc(C(F)(F)F)c2)nc(SCc2ccc3nc(Cl)ccc3c2)[nH]1 is reported as 0% (TOP2A (Homo sapiens, UniProt P11388); DNA relaxation; 62.5 µM, replicate 1).
For CCc1ccccc1-c1ccc(C(=O)NC[C@@H](N)C(=O)O)s1, the log EC50 was -2.72 µM (Glutamate receptor ionotropic, NMDA 1, with GluN2C (Grin1, Rattus norvegicus, UniProt P35439, S688A); receptor activation; rat; with: glutamate 300 µM).
Nc1ncnc2c1ncn2[C@@H]1O[C@H](COP(=O)(O)CP(=O)(O)OP(=O)(O)O)[C@@H](O)[C@H]1O has a specific binding of 776 CCPM and 1200 CCPM and 764 CCPM (P2X purinoceptor 1 (P2RX1, Homo sapiens, UniProt P51575, E122A); saturation binding; HEK293; 103 nM).
The relative fluorescence of CC/C=C\CC=O is reported as 66.9% (uncharacterized protein; binding, 1-NPN competitive displacement; protein 2.0 µM, with: 1-NPN 20 µM; reference: 1-NPN without compound, lower = stronger binding).
Cc1cc(-c2ccnc3[nH]cc(F)c23)cc(F)c1[C@@]1(O)[C@H](C)CN(C2CCS(=O)(=O)CC2)C[C@@H]1C — result for “probe labelling inhibition”: 22.7% (JAK1 (Homo sapiens, UniProt P23458); ATP/ADP probe binding, KiNativ; HEK293T lysate; 0.1 µM, Lys1 peptide domain 2).
O=C(COP(=O)(O)O)[C@@H](O)[C@H](O)[C@H](O)COP(=O)(O)O — result for “thermal stability ratio”: 0.595 (Glycine--tRNA ligase (Homo sapiens, UniProt P41250); thermal proteome profiling, refers to: GARS; HepG2 cell lysate; concentration not given, 57 over 37 °C, mean; reference: compound over control).
With O=C(C1=C(O)C(=O)N(c2ccc(Br)cc2F)C1C1CCCCC1)C1CC1 (centres unmarked) the Hill slope was -0.4 ± 0.07 (CCR1 (Homo sapiens, UniProt P32246); inverse agonist; U2OS; no agonist).
For CC[C@@H]1[C@H](F)C(=O)N[C@@H]1COc1nccc2cc(C(N)=O)c(OC)cc12, the inhibition was 1.9% (MAPK7; ATP-site probe binding, ActivX profiling, refers to: Erk5; THP-1 cell lysate; 0.04 mM, Lys2 site).
C=CC(=O)N1CCC(COCC(=O)N2CCN(c3nc(-c4cnc(N)nc4C(F)F)nc(N4CCOC[C@@H]4C)n3)CC2)CC1 has a remaining binding of 100% (MAPK7; KINOMEscan; 1 µM).
[O-][S+]1CCCCS1 (centres unmarked): “SOD1 monomer fraction” 85.3% (SOD1 (Homo sapiens, UniProt P00441, G94A); LC-MS; brain homogenate; 50 µM, 1 h, 37 °C).
Cc1occc(=O)c1[O-].[Cl-].[W+4].c1cc[cH-]c1.c1cc[cH-]c1 — result for “Gibbs free energy change”: -5.37 kcal/mol (ALB; binding, fluorescence quenching; 288 K).
C[C@H](CCC(C)(C)O)[C@H]1CC[C@H]2[C@@H]3CC=C4C[C@@](C)(O)CC[C@]4(C)[C@H]3CC[C@]12C gave a current response of 158 ± 6.5% (Glutamate NMDA receptor; GRIN1/GRIN2B (GRIN1/GRIN2B, Homo sapiens, UniProt Q05586+Q13224, F654A); positive allosteric modulator, two-electrode voltage clamp; Xenopus oocytes expressing GluN1-F654A; 10 µM, 0.02% cremophor, with: 100 µM glutamate and glycine; reference: without compound).
For C=CC[C@@H]1c2ccc(OC)c(OC)c2CN2CCc3cc4c(cc3[C@H]12)OCO4, the remaining activity was 18.6% (P2X purinoceptor 7 (P2RX7, Homo sapiens, UniProt Q99572); ATP-evoked current, inhibitor, whole-cell patch clamp; HEK293 transfected; 1 µM).
Under “mean decatenated DNA”, O=c1nc(SCc2cc(F)cc(C(F)(F)F)c2)nc(SCc2csc3ccc(Cl)cc23)[nH]1 is recorded as 4.7% (TOP2B (Homo sapiens, UniProt Q02880); decatenation; 15.6 µM).
For CC[C@H](C)[C@@H]1NC(=O)[C@H](Cc2ccc(-c3ccccc3)cc2)NC(=O)[C@H](CC(C)C)NC(=O)[C@@H]2CCCN2C(=O)[C@@H](NC(=O)[C@H](CCCNC(=N)N)NC(=O)[C@H](CCCNC(=N)N)NC(C)=O)CSSC[C@@H](C(=O)N[C@@H](CCCNC(=N)N)C(=O)N[C@@H](CCCNC(=N)N)C(N)=O)NC(=O)[C@H](CCC#N)NC(=O)[C@@H]2CCCN2C(=O)[C@H](CC(=O)O)NC(=O)[C@H](Cc2ccc(O)cc2)NC(=O)[C@H](CO)NC1=O, “lowest bound protein concentration” read 0.04 µM (GTPase KRas, GDP-bound (KRAS, Homo sapiens, UniProt P01116, G12D); affinity selection mass spectrometry; mixture library 4, with: protein titration up to 2.5 µM; lower is stronger binding).
For CC[C@H](C)[C@@H]1NC(=O)[C@H]([C@@H](C)O)NC(=O)[C@@H]2CCCN2C(=O)[C@@H](NC(=O)CN)CSSC[C@@H]2NC(=O)CNC(=O)[C@H](C)NC(=O)[C@H](CC(C)C)NC(=O)[C@@H]3CSSC[C@@H](C(=O)NCC(=O)O)NC(=O)[C@H](Cc4ccccc4)NC(=O)CNC(=O)[C@H](CC(N)=O)NC(=O)[C@@H]4CCCN4C(=O)CNC(=O)[C@H](CSSC[C@H](NC(=O)[C@H](CCCNC(=N)N)NC(=O)[C@H](CCC(N)=O)NC(=O)[C@H](CCCNC(=N)N)NC(=O)[C@H](CCCCN)NC(=O)[C@H](C(C)C)NC(=O)[C@H](Cc4c[nH]cn4)NC(=O)[C@H](CC(N)=O)NC1=O)C(=O)N[C@@H](CCCCN)C(=O)N[C@@H](CCC(N)=O)C(=O)N[C@@H](CC(=O)O)C(=O)N[C@@H](CO)C(=O)N[C@@H](CC(=O)O)C(=O)N3)NC(=O)[C@H](C(C)C)NC2=O, the kon was 1.45e+06 ± 290000 M⁻¹ s⁻¹ (Low-density lipoprotein receptor-related protein 6, E1 domain (LRP6, Homo sapiens, UniProt O75581); binding, SPR; pH 7.5).
For NCCCCC(=O)O, “normalised MST signal” read 0.0329 (SLC6A6 (Homo sapiens, UniProt P31641, G62A); binding, microscale thermophoresis; 15.6 µM, room temperature, with: 50 nM labelled protein; higher = more binding).
